Measured values of several laboratories.
Numbered parts are unrelated; each lists some results of a single study.

Block 1 — technique: RNA Bind-n-Seq; molecule type: RNA; medium: in vitro; tested at: 200 nM; notes: whole 134-nt RNA, ends assumed; together with: 150 mM LiCl; baseline: input library; reading: higher = stronger binding; all molecules: 7-deaza-guanosine replaces G
Target: Ras GTPase-activating protein-binding protein 1, full length (G3BP1, Homo sapiens, UniProt Q13283)
Sequence of UniProt Q13283 (whole entry, looked up): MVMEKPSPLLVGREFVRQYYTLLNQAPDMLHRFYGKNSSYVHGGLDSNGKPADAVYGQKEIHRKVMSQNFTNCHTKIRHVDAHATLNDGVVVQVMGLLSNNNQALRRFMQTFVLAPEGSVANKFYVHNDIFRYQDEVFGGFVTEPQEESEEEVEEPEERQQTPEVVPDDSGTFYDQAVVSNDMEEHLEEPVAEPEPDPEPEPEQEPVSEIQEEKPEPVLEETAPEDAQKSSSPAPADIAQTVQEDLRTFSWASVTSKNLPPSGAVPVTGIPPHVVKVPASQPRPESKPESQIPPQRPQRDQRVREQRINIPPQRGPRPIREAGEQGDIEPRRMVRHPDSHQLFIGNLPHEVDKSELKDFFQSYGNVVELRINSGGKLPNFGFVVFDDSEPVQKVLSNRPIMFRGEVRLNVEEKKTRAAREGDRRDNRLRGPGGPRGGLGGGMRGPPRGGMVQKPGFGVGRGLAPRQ
Sequence	log2 enrichment
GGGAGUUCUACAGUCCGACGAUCUGGGAGGAGGAUUUUGUUUAUUUUUUUAGCUCAUUUCCAGGGGUGGGAAUUUUUUUUUAAUAUGUGUCAUGAAUAAAGUUGUUUUUGAAAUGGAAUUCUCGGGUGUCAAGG	-0.114
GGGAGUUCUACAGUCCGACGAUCACCAUGCAGGUGAAAAUCUUUGGGAAGUGGGGCAAGGGGGGGAUAGGGAGGGGGGUAACACUUUGGGAACAGGUGGUCCCAGGUCGUUUCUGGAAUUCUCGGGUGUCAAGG	0.396
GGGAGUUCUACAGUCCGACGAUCUCCUGUGCUACACAUCGUAUGUACCGAAUCGGGGAGGGGUUUUUUUGGGGAAAAAGGGGAAAGUAUUAUGUUACGCCGUUCGGAUCUGCAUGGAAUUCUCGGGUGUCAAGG	0.508
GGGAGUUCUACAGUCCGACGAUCCAAGUCCUGUGCUACACAUCGUAUGUACCGAAUCGGGGAAAGGGGUGGGGUGGGGAAAGUAUUAUGUUACGCCGUUCGGAUCUGCACUUCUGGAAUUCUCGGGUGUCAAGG	-0.182
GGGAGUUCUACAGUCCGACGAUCUUGUUUUUUUUUUGUUCUUUUUUUCCAUGUCACUAAAGGCCCUCGGGACCAAGGAUCACGUCAUGACUCCGGUGAGUUCACACGUGGUGGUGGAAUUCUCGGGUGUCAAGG	1.6
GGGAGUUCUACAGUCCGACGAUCCAAGUCCUGUGCUACACAUCGUAUGUACCGAAUCGGUUUUGGGUUUUGGUUUUGGAAAGUAUUAUGUUACGCCGUUCGGAUCUGCACUUCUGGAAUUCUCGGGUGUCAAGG	-0.792
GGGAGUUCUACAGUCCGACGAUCCACAGACAACACGCACCCACACAGACACAGAGGGAAGGGGUUGGGAUGGGGACAGGGUGCACAGCAGGGCGGGGUAGGAGCCCAGCCCCUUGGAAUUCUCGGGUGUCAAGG	0.566
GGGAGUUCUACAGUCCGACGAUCAGUCCUGUGCUACACAUCGUAUGUACCGAAUCGGAAAAAAAGGUUUUUUUGGUUUGGAAAGUAUUAUGUUACGCCGUUCGGAUCUGCACUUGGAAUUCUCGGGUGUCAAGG	-3.46

Block 2 — technique: aptamer microarray, sandwich; molecule type: DNA with 2'F-ANA; medium: in vitro; tested at: 200 nM; together with: Cy3 exosite-II aptamer, 400 nM; reading: higher = stronger binding; sequence: GGTTGGTGTGGTTGG
Target: Prothrombin, mature alpha-thrombin (F2, Homo sapiens, UniProt P00734)
Notes: whole 15-mer aptamer, many near background
Modification	mean fluorescence intensity
2'F-ANA at 1 3 4 6 9 10 11	66.7 a.u.
2'F-ANA at 1 4 5 6 7 9 10 13 14 15	47.4 a.u.
2'F-ANA at 3 4 6 7 10 12 13 14	155 a.u.
2'F-ANA at 1 9 10 13 14	46.8 a.u.
2'F-ANA at 1 5 6 11 13 14	75.4 a.u.
2'F-ANA at 3 5 6 7 8 9 11 13	101 a.u.
2'F-ANA at 2 6 9 10 11 13 15	92.7 a.u.
2'F-ANA at 2 4 5 9 10 11 12 13 15	48 a.u.
2'F-ANA at 1 3 4 5 7 8 9 10 12 13 15	50.9 a.u.
2'F-ANA at 1 2 4 5 6 7 10 11 12 13	49 a.u.
2'F-ANA at 1 4 5 6 15	57 a.u.
2'F-ANA at 3 5 6 7 9 10 12 14 15	48.3 a.u.
2'F-ANA at 1 3 5 7 8 9 10	68.7 a.u.
2'F-ANA at 3 6 8 9 10 11 13	363 a.u.
2'F-ANA at 1 2 4 5 6 7 9 12	138 a.u.
2'F-ANA at 2 3 11 12 13	953 a.u.
2'F-ANA at 9 11 12 15	635 a.u.
2'F-ANA at 1 4 5 6 7 9 10	50.8 a.u.
2'F-ANA at 2 3 4 6 7 8 9 10 11 13 14	144 a.u.
2'F-ANA at 2 3 4 5 7 11 12 13 14 15	52.2 a.u.
2'F-ANA at 2 4 6 8 9 10 12 13 15	78.7 a.u.
2'F-ANA at 1 4 5 7 8 11 12 13	74.1 a.u.

Block 3 — technique: protein-binding microarray; molecule type: double-stranded DNA, one strand shown; medium: in vitro; tested at: 250 nM; notes: 60-bp whole probe; together with: salmon DNA 0.4 mg/ml; baseline: random background probes; reading: higher = stronger binding; shared flanks, not repeated: GCCTAGCAC … GTCTTGATTCGCTTGACGCTGCTG
Target: Interferon regulatory factor 7, full length, phosphomimetic (IRF7, Homo sapiens, UniProt Q92985, residues 1-503, S101K/S471D/S472D/S475D/S476D/S477D/S483D/S484D/S487D)
Sequence of UniProt Q92985 (whole entry, unmodified, looked up): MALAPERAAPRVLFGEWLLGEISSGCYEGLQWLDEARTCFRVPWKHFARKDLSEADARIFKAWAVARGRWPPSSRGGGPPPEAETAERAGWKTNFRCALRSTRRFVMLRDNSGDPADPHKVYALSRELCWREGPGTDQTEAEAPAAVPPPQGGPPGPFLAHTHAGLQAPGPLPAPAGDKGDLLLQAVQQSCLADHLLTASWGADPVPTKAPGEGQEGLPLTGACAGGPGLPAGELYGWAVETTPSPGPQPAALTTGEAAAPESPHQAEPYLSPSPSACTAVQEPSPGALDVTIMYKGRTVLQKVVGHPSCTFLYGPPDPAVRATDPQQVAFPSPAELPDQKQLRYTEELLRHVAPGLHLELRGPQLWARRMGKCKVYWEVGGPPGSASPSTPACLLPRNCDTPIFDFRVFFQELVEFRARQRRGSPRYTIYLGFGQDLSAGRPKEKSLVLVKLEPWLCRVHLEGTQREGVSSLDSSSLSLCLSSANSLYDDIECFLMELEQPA
Sequence	log fluorescence [z-score]
GACGATTTCAGTTTCAAGACGTGCTAG	1.01
GACGGTTTCGACAGTGGGGACGTGCTA	2.23
GACGGTATCCACTTTCGGGACGTGCTA	0.552
TCAGTTTCCAGTATATTACTGTGCTAG	2.31
GACGGACTGGGGACTGTGGACGTGCTA	-0.635
GACGGACTGCTTCCCCTGACGTGCTAG	-0.159
GATGGTCTCCTACTGCTGACGTGCTAG	-0.165
GACGGTTCCAGTTTCGAGACGTGCTAG	4.88
GACGGACCGGGACTGGGGACGTGCTAG	-0.265
GACGGACTGCGTTTCCTGACGTGCTAG	-0.245
TCAACTCTTGCTTTTTAACTGTGCTAG	-0.0299
TTAGGACTGGGTCTCGTTTAGTGCTAG	1.57
GACGGACTGCTACTGCTAACGTGCTAG	-0.868
TTATGACTGGGGACTGGGTTAGTGCTA	-0.129
TTAGATTTCAGTATCGACTAGTGCTAG	0.453
AAAGTTATCACTTCCAAAGTGTGCTAG	0.365
CTCATTCTCTGCTTCTGTATGTGCTAG	1.43
GACGATTTGGGGACTGGAGACGTGCTA	0.0475
TCATCTATTGCTTTCTCACTGTGCTAG	0.62

Block 4 — technique: RNA Bind-n-Seq; molecule type: RNA; medium: in vitro; tested at: 365 nM; baseline: no-protein control; reading: higher = stronger binding
Target: RNA binding protein fox-1 homolog 2, RRM domain, GST-SBP tag (RBFOX2, Homo sapiens, UniProt O43251-10, residues 100-194)
Notes: natural RNA segment, single round, ends assumed
Residues (chain): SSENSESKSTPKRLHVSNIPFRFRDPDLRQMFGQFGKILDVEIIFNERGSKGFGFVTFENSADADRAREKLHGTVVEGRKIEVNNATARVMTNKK
Sequence	RBNS enrichment (R)
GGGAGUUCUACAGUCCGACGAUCGUGUCAGGCCGGCUUGGACAAUGAAACCCUGACCUUGCUGCAUUCCUUUUGCUUCCACCACCACUAGCUUCUUUGGAAUCUUGGGGUGGGGGUCAUCUUUGGGGAUUAUGUGGAAUUCUCGGGUGCCAA	0.208
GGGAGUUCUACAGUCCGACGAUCCUUAACCUCCAAAGCCACAGAACUAGGGGCUCAGAGCCAGAGCUGGCAGCCGCCAGCCAAAAUGAUGCCAUUGCCUGAGCUGACAGCCAAGCCCUUCUGUGGGUCACCUUUGGAAUUCUCGGGUGCCAA	0.458
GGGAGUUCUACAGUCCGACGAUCAAGCCUUCUUCCUUUGCUUCAGGCAGCUGUCACCUUCUCUUUAUUGGUGGUCCUAAGUGGGUCACUUAAGAAAAAAAAGUGUAACAAAUUCUCGCUCCAUGAACCUGGUUUGGAAUUCUCGGGUGCCAA	0.263
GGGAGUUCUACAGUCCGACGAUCCCGGUGUGGACACGUGCUGGUUAAGCACUCAGGCCUACGUGGGCCGAGCGGGAUCUUGAUCAUGGGGCUGGUGUAUGGAUCCACCGUCGGAUUCCGUCUGCAGAGGAGGAUGGAAUUCUCGGGUGCCAA	2.19
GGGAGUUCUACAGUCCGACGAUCUUGGCUGGGAUAGAGGGGUCAAGUUAUUAAUUUCUUCACACCUACCCUCCUUUUUUUCCCUAUCACUGAAGCUUUUUAGUGCAUUAGUGGGGAGGAGGGUGGGGAGACAUUGGAAUUCUCGGGUGCCAA	0.555
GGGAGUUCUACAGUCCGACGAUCUUCUUGGUUGUGUCACCCCCAAAGAGUCAGAACUGUACACAGUUCAAAACUUAGUGACUGUGGGUCACAUUCCCACUGUUGAAACUGCUAAAUUGUGACCUGGGGAAGGAUGGAAUUCUCGGGUGCCAA	0.507
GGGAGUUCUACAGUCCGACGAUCCCUACCCCAGAAAUAGGACAAUUCACUUCAUUGACCAAGAUGAUCACAUGGAAGGCGGCACAGAGGCAGCUGUGUGGGCUGCAGAUUUCCUGUGUGGGGUUCAGCGUAGAUGGAAUUCUCGGGUGCCAA	0.426
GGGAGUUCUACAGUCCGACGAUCCACUGGGAGCUCAAAAUUUGCCUCCCUGUUAGUCUUUAAUAACUGAGUAGAGUAGCUUUUUUAUUCUUAGAUUAUAGUGAUAUUCUGUAGUGCUUCAAAUACUUAGAAUUUGGAAUUCUCGGGUGCCAA	0.541

Excerpt of the above (block 3):
Sequence	log fluorescence [z-score]
TCAACTCTTGCTTTTTAACTGTGCTAG	-0.0299
TTAGGACTGGGTCTCGTTTAGTGCTAG	1.57
TCAGTTTCCAGTATATTACTGTGCTAG	2.31
CTCATTCTCTGCTTCTGTATGTGCTAG	1.43
AAAGTTATCACTTCCAAAGTGTGCTAG	0.365
GACGGACTGGGGACTGTGGACGTGCTA	-0.635
GACGGACTGCTACTGCTAACGTGCTAG	-0.868
